Experimental data pooled from the literature.
Compare with care: the assays were run in different laboratories. Several values in a cell are separate wells, animals, samples, runs or records. ± gives the spread as reported.

O=[N+]([O-])c1ccc(Nc2ccnc3ccc(-c4ccc(S(=O)(=O)N5CCOCC5)cc4)cc23)cn1  fraction unbound (human plasma): 0.024
O=C(O)c1cn(-c2ccc(-c3ccc(C(=O)N4CCNCC4)cc3)cc2)cc(O)c1=O  fraction unbound (human plasma): 0.64
CN1CCC(Nc2ncnc3ccc(-c4cccc(N5CCOCC5)c4)cc23)CC1  fraction unbound (human plasma): 0.28
CC(C)NCC(O)COc1cccc2ccccc12 (stereo not shown)  fraction unbound (rapid equilibrium dialysis; rat plasma; 2 µM, 6 h, pH 7.4): 0.15
Cc1c(Br)cc(NC(=O)CS(=O)(=O)O)cc1Br  fraction unbound (equilibrium dialysis; mouse plasma; 4.5 h): < 0.01
COCC(=O)N1CCC[C@H](C(=O)NCc2nc(-c3ccccc3)cs2)C1  fraction unbound (mouse plasma; 6 h): 0.062
O=C1N[C@H](c2cncc(C#Cc3ccccc3)c2)[C@@H](c2ccccc2Cl)O1  fraction unbound (plasma; rat, monkey or human): 0.001 to 0.005
C=CC(=O)Nc1cc(Nc2nccc(Nc3cc(Cl)c(F)cc3C(C)(C)O)n2)c(OC)cc1N1CC[C@@H](N(C)C)C1  fraction unbound (equilibrium dialysis; rat plasma; 5 µM, 18 h, pH 7.4): 0.087 ± 0.011
C[C@@H]1COCCN1c1cccc(-c2ccc3ncnc(Nc4ncco4)c3c2)c1  fraction unbound (human plasma): 0.0072
N#C[C@@]1(c2ccc3c(N)ncnn23)O[C@H](CO)[C@@H](O)[C@H]1O  fraction unbound (mouse plasma; 100 µM): 0.897
Cc1nsc(-c2nnc3n2CCN(C(=O)c2ccc(F)cc2)[C@@H]3C)n1  fraction unbound (blood): 0.49
COc1cc2c3c(n(CCCN4CCOCC4)c(=O)c2cc1OC)-c1cc2c(cc1C3=O)OCO2  fraction unbound (equilibrium dialysis; dog plasma; 10760 ng/mL, 24 h, 37 °C): 0.023
CCC(C)n1ncn(-c2ccc(N3CCN(c4ccc(OCC5COC(Cn6cncn6)(c6ccc(Cl)cc6Cl)O5)cc4)CC3)cc2)c1=O (stereo not shown)  fraction unbound (equilibrium dialysis; human liver microsomes 0.025 mg/mL): 0.27 ± 0.028
CC#Cc1cncc(-c2ccc3c(c2)[C@@]2(N=C(C)C(N)=N2)[C@]2(CC[C@H](OC)CC2)C3)c1  fraction unbound (equilibrium dialysis; dog plasma; 6 h, pH 7.4): 0.099
CCCC[C@@H]1NC(=O)[C@H](Cc2ccc(O)cc2)NC(=O)[C@@H]2CCCN2C(=O)[C@H](CC(=O)O)NC(=O)[C@H](C)NC(=O)[C@H](Cc2ccccc2)NC(=O)[C@@H]2CSCCC(=O)N3CN(CN(C3)C(=O)CCSC[C@@H](C(=O)N[C@@H](CNC(=O)CCOCCOCCOCCOCCOCCOCCOCCOCCOCCOCCOCCOCCn3cc(CCC(=O)NCCC(=O)N(C)CC(=O)N(C)CC(=O)N(C)CC(=O)N(C)CC(=O)N(C)CC(=O)N(C)CC(=O)N(C)CC(=O)N(C)CC(=O)N(C)CC(=O)N(C)CC(=O)N[C@H]4CSCCC(=O)N5CN6CN(C5)C(=O)CCSC[C@H](NC(=O)[C@@H](CC(=O)O)NC(=O)[C@H](Cc5cccc7ccccc57)NC(=O)[C@@H]5CCCN5C4=O)C(=O)N[C@@H](CCSC)C(=O)N[C@@H](CCCCNC(=N)N)C(=O)N[C@@H](CC(=O)O)C(=O)N[C@@H](Cc4c[nH]c5ccccc45)C(=O)N[C@@H](CO)C(=O)N[C@@H]([C@@H](C)O)C(=O)N4CCC[C@H]4C(=O)N4C[C@H](O)C[C@H]4C(=O)N[C@@H](Cc4c[nH]c5ccccc45)C(=O)N[C@H](C(N)=O)CSCCC6=O)nn3)C(N)=O)NC1=O)C(=O)CCSC[C@H](NC(C)=O)C(=O)N[C@@H](CC(C)(C)C)C(=O)N1CCC[C@H]1C(=O)N[C@@H](CCC(=O)O)C(=O)N[C@H](C)C(=O)N1CCC[C@H]1C(=O)N[C@@H](Cc1ccc(O)cc1)C(=O)N2  fraction unbound (ultracentrifugation; rat plasma): 0.34
CC(F)(F)CN1Cc2cc(C(F)(F)F)ncc2C2=CN=C(NCc3c(F)ccc4c3CCO4)N3C=NC(C1=O)C23 (stereo not shown)  fraction unbound (human plasma): < 0.01
O=S(=O)(c1ccc(-c2ccc3nccc(Nc4cnccn4)c3c2)cc1)N1CCOCC1  fraction unbound (human plasma): 0.016
O=C(Cc1ccc(F)c(C(F)(F)F)c1)N1CCN(c2ccc3nncn3n2)CC1  fraction unbound (ultrafiltration; human plasma; 1 µM, 0.5 h): 0.16
C=CC(=O)Nc1cc(Nc2nccc(-c3cn(C)c4ccccc34)n2)c(OCC(F)(F)F)nc1N(C)CCN(C)C  fraction unbound (rapid equilibrium dialysis; human plasma; 1 µg/mL): 0.59% and 0.67% and 0.63%
CO[C@H]1/C=C/O[C@@]2(C)Oc3c(C)c(O)c4c(c3C2=O)C2=NC3(CCN(CC(C)C)CC3)NC2=C(NC(=O)/C(C)=C/C=C/[C@H](C)[C@H](O)[C@@H](C)[C@@H](O)[C@@H](C)[C@H](OC(=O)Nc2c(C)nc3ccccn23)[C@@H]1C)C4=O  fraction unbound (human plasma): 6.55
Cc1cc(=O)n(-c2ccccc2)n1C  fraction unbound (equilibrium dialysis; human plasma): 0.99
Clc1ccc(Nc2ncnc3ccc(-c4cccc(N5CCOCC5)c4)cc23)cc1Cl  fraction unbound (human plasma): < 0.0005
CC(C)(O)c1ccccc1CC[C@@H](SCC1(CC(=O)O)CC1)c1cccc(/C=C/c2ccc3ccc(Cl)cc3n2)c1  fraction unbound (rapid equilibrium dialysis; 10% human plasma; 2 µM, 24 h, pH 7.4): 3e-05
CN1CC(Oc2cnc(C#N)cc2-c2ccn3nc(NC(=O)C4CC4)cc3c2)C1  fraction unbound (rat plasma diluted 25%; 1 µM, 6 h, pH 7.4): 0.49
C[C@@H](Oc1cc(-c2cnn(C3CCNCC3)c2)cnc1N)c1c(Cl)ccc(F)c1Cl  fraction unbound (equilibrium dialysis; cell medium with 10% FBS): 0.83
Cc1ccccc1CN1C(=O)C2=C(CCN(Cc3ccccc3)C2)N2CCN=C12  fraction unbound (equilibrium dialysis; plasma; 0.386 mg/L): 0.0303
C[C@@H](O)[C@H](NC(=O)[C@H](Cc1ccc(O)cc1)NC(=O)[C@H](Cc1ccc(O)cc1)NC(=O)[C@H](CO)NC(=O)[C@H](CCCNC(=N)N)NC(=O)[C@H](Cc1c[nH]cn1)NC(=O)[C@@H](N)Cc1c[nH]c2ccccc12)C(=O)N[C@@H](Cc1c[nH]c2ccccc12)C(=O)N[C@@H](CC(N)=O)C(N)=O  fraction unbound (human serum albumin): 0.16
CC(=O)Nc1ccc(O)cc1  fraction unbound (rapid equilibrium dialysis; human plasma; 2 µM, 6 h, pH 7.4): 0.745
FC(F)(F)c1cc(Nc2ncnc3ccc(-c4cccc(N5CCOCC5)c4)cc23)ccc1Cl  fraction unbound (human plasma): < 0.0005
NC(=O)N1c2ccccc2C=Cc2ccccc21  fraction unbound (mouse plasma): 0.271
O=S(=O)(c1ccc(-c2ccc3nccc(Nc4ccnnc4)c3c2)cc1)N1CCOCC1  fraction unbound (human plasma): 0.42
O=C1C2N=CN3C(NCc4c(F)ccc5c4CCO5)=NC=C(c4cnc(C(F)(F)F)cc4CN1CC(F)F)C23 (stereo not shown)  fraction unbound (rat plasma): < 0.01
N#C[C@@]12C[C@@H]1[C@@H](n1cnc3c(N[C@@H](C4CCC4)C4CC4)nc(I)nc31)[C@H](O)[C@@H]2O  fraction unbound (plasma protein binding; mouse plasma): 0.0058
CC(C)NCC(O)COc1cccc2ccccc12 (stereo not shown)  fraction unbound (rapid equilibrium dialysis; rat plasma; 10 µM, 4 h, 37 °C): 0.153
Cc1noc2c1-c1ccccc1C(c1ccc(Cl)cc1)=N[C@H]2CC(N)=O  fraction unbound (equilibrium dialysis; mouse plasma; 10 µM, 4 h, pH 7.4): 0.0325 ± 0.0062
O=S(=O)(c1ccc(-c2ccc3nccc(Nc4ccc5[nH]nnc5c4)c3c2)cc1)N1CCOCC1  fraction unbound (human plasma): 0.034
CCOC(=O)c1ncn2c1CN(C)C(=O)c1cc(F)ccc1-2  fraction unbound (ultrafiltration; rat plasma; 5 µM, 30 min): 0.14

Some of these lines once more:
Cc1noc2c1-c1ccccc1C(c1ccc(Cl)cc1)=N[C@H]2CC(N)=O  fraction unbound (equilibrium dialysis; mouse plasma; 10 µM, 4 h, pH 7.4): 0.0325 ± 0.0062
CC(=O)Nc1ccc(O)cc1  fraction unbound (rapid equilibrium dialysis; human plasma; 2 µM, 6 h, pH 7.4): 0.745
O=C1C2N=CN3C(NCc4c(F)ccc5c4CCO5)=NC=C(c4cnc(C(F)(F)F)cc4CN1CC(F)F)C23 (stereo not shown)  fraction unbound (rat plasma): < 0.01
C[C@@H]1COCCN1c1cccc(-c2ccc3ncnc(Nc4ncco4)c3c2)c1  fraction unbound (human plasma): 0.0072
CC(F)(F)CN1Cc2cc(C(F)(F)F)ncc2C2=CN=C(NCc3c(F)ccc4c3CCO4)N3C=NC(C1=O)C23 (stereo not shown)  fraction unbound (human plasma): < 0.01
